Experimental data of several laboratories.
Parts stem from different laboratories: compare values within a part only. ± gives the spread as reported.
Sequence of UniProt P10635 (whole entry, looked up): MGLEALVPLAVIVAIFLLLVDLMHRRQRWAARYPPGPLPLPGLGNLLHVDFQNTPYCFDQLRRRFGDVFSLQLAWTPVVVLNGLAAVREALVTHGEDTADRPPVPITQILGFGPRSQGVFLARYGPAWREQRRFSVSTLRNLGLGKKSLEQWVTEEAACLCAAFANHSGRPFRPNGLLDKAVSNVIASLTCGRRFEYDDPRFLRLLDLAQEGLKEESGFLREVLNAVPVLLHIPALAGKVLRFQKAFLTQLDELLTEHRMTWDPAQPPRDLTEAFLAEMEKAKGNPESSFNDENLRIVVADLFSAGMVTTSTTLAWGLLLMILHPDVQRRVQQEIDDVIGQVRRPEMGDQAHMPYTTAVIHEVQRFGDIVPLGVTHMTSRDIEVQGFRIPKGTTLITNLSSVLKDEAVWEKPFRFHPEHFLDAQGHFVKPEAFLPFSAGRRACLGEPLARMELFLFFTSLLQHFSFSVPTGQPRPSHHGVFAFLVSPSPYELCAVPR

Block 1
Cell line: HEK-293T/ACE2
Read-out: pseudovirus infection
Organism: VSV pseudotyped with SARS-CoV-2 spike
Concentration: 10 µM
Time: 16 h
Reference: vehicle-treated
| SMILES | GFP-positive cells [%] |
| --- | --- |
| CN(C)C(=O)Oc1cccc([N+](C)(C)C)c1 | 57.9 |
| CC1=C(/C=C/C(C)=C/C=C/C(C)=C/C=C/C=C(C)/C=C/C=C(C)/C=C/C2=C(C)CCCC2(C)C)C(C)(C)CCC1 | 84.6 |
| CNC(=C[N+](=O)[O-])NCCSCc1csc(CN(C)C)n1 | 82.3 |
| CCC(=O)O[C@]1(C(=O)CCl)[C@@H](C)C[C@H]2[C@@H]3CCC4=CC(=O)C=C[C@]4(C)[C@@]3(F)[C@@H](O)C[C@@]21C | 84.6 |

Block 2
Target: Replicase polyprotein 1ab, main protease (rep, Severe acute respiratory syndrome coronavirus 2, UniProt P0DTD1)
Read-out: enzyme activity
Mode: inhibitor
Concentration: 20 µM
Setting: hit confirmation, no DTT
| SMILES | inhibition |
| --- | --- |
| c1ccc2sc(SSc3nc4ccccc4s3)nc2c1 | 109% |
| CCCC[C@H](NC(=O)[C@@H]1[C@@H]2[C@H](CN1C(=O)[C@@H](NC(=O)NC1(CS(=O)(=O)C(C)(C)C)CCCCC1)C(C)(C)C)C2(C)C)C(=O)C(=O)NC1CC1 | 55.3% |
| CCOC(=S)SSC(=S)OCC | 94.6% |

Block 3
Target: Replicase polyprotein 1ab, polymerase (rep, Severe acute respiratory syndrome coronavirus 2, UniProt P0DTD1)
Read-out: enzyme activity
Mode: inhibitor
Concentration: 20 µM
| Structure (SMILES) | inhibition |
| --- | --- |
| CCCCc1nc(C)c(CC(=S)N(C)C)c(=O)n1Cc1ccc(-c2ccccc2-c2nnn[nH]2)cc1 | 40.3% |
| COc1c(N2CCNC(C)C2)c(F)cc2c(=O)c(C(=O)O)cn(C3CC3)c12 (centres unmarked) | -0.67% |
| Cc1cc(F)c(Nc2ncnc3cc(OCc4ccccc4)ccc23)cc1O | -2.66% |
| CC1(C)CNc2cc(NC(=O)c3cccnc3NCc3ccncc3)ccc21 | 4.39% |
| O=c1ccc2ccc(OCCCCN3CCN(c4cccc5sccc45)CC3)cc2[nH]1 | -2.92% |
| COc1ccc(C2CNC(=O)NC2)cc1O[C@H]1C[C@@H]2CC[C@H]1C2 | 2.85% |
| CC[N+]1(C)CCCC(OC(=O)C(O)(c2ccccc2)c2ccccc2)C1 (centres unmarked) | -0.66% |
| COC[C@H](C)Oc1cc(O[C@@H](C)Cc2ccccc2)cc(C(=O)Nc2ccc(C(=O)O)cn2)c1 | 0.98% |
| CCCN(CCC)C(=O)C(CCC(=O)OCCCN1CCN(CCOC(=O)Cc2c(C)n(C(=O)c3ccc(Cl)cc3)c3ccc(OC)cc23)CC1)NC(=O)c1ccccc1 (centres unmarked) | -3.89% |
| NCCc1c[nH]cn1 | 12.2% |
| CC(=O)S[C@@H]1CC2=CC(=O)CC[C@]2(C)[C@H]2CC[C@@]3(C)[C@@H](CC[C@@]34CCC(=O)O4)[C@H]12 | 24.7% |
| C1CCN2C[C@@H]3C[C@@H](CN4CCCC[C@@H]34)[C@H]2C1 | 2.73% |
| CC(C)(C)c1ccc(C(=O)Nc2cn3cc(-n4ccnc4)ccc3n2)cc1 | -6.81% |
| CO[C@@H]1[C@@H](OC(N)=O)[C@@H](O)[C@H](Oc2ccc3c(O)c(NC(=O)c4ccc(O)c(CC=C(C)C)c4)c(=O)oc3c2C)OC1(C)C | 29.1% |
| COc1cc2c(cc1OC)CN(C(=O)[C@@H](NCc1ccncc1)C(C)(C)C)CC2 | 0.39% |
| c1cc2c(c(N3CCNCC3)c1)OCCO2 | -6.77% |
| CC1(C)CC(Oc2ccc(-c3ccc(-c4cn[nH]c4)cc3O)nn2)CC(C)(C)N1 | -1.13% |
| O=C(CCc1ccncc1)NNC(=O)N1Cc2ccccc2Oc2ccc(Cl)cc21 | 1.56% |
| O=C1C(=O)N(Cc2ccc(Cl)c(Cl)c2)c2ccccc21 | 13.2% |
| O=c1cc[nH]c(=S)[nH]1 | -4.35% |
| CC(C)(C)[C@H]1CC[C@H](CC2=C(O)C(=O)c3ccccc3C2=O)CC1 | -4.15% |
| COC(=O)/C=C/c1cccc(N(Cc2ccc(-c3ccc(N(C)C)cc3)cc2)C(=O)C2CCCCC2)c1 | 0.89% |

Other studies, line by line
rep main protease: Replicase polyprotein 1ab, main protease (rep, Severe acute respiratory syndrome coronavirus 2, UniProt P0DTD1)
| Molecule | tested on | assay | test system | setting | scale | endpoint | value |
| --- | --- | --- | --- | --- | --- | --- | --- |
| HTTDPSFLGRYMSAL | human CD4 T cells | AIM | peptide |  |  | responding donors | 18% |
| daurisoline | rep main protease | enzyme activity, Gaussia luciferase reporter | SARS-CoV-2 | 20 µM |  | inhibition | -0.782% |
| C[C@@H]1CN(c2ncc(C(O)CO)cc2Cl)CCN1c1nc2c(-c3cc(F)c(F)c(F)c3)cc(C(F)(F)F)cc2[nH]1 (some centres unmarked) | SARS-CoV-2 | viral replication | Huh-7-ACE2, USA-WA1/2020 |  |  | EC90 | > 2.5 µM |
| Env SOSIP.v4.1 gp120/gp41 (HIV-1) | itself | native gel and SEC |  |  |  | subunits per oligomer | 3 |
| Cc1cn([C@H]2C[C@H](O)[C@@H](COP(=O)(O)OP(=O)(O)OP(=O)(O)O)O2)c(=O)[nH]c1=O | Gag-Pol polyprotein, reverse transcriptase (gag-pol, Human immunodeficiency virus type 1 group M subtype B, UniProt P04585, K653A) | nucleotide misinsertion, steady-state kinetics |  | K66A mutant RT, together with: opposite template T |  | Km | 604 ± 729 µM |
| COc1cccc(-c2ccccc2NC(=O)C2CCN(Cc3ccccc3F)CC2)c1 | SARS-CoV-2 | cytopathic effect | USA_WA1/2020 | retest, 8-point, duplicates |  | maximum response | 61.3% |
| Nc1ncnc2c([C@@H]3N[C@H](CO)[C@@H](O)[C@H]3O)c[nH]c12 | Venezuelan equine encephalitis virus | viral replication | HeLa, SH3 | 6.3 µM |  | inhibition | 0.1% |
| CC(C)(Nc1nc(N2CCNCC2)nc2ccccc12)c1ccccc1 | SARS-CoV-2 | cytopathic effect | USA_WA1/2020 | round 2, 5-point |  | efficacy | 52.5% |
| Cn1cnc(Cn2c(=O)[nH]/c(=N\c3cc4cn(C)nc4cc3Cl)n(Cc3cc(F)c(F)cc3F)c2=O)n1 |  |  | human, normal renal function | oral, 375 mg |  | any TEAE, Moderate severity | 0% |
| RNCRAPRKK | HLA class I histocompatibility antigen, A alpha chain (Homo sapiens, UniProt P04439) | iTopia binding | peptide | 11 µM, 18 h, 21 °C | reference: positive control | peptide binding | 62.1% |
| CC[C@H](C)[C@H](NC(=O)[C@H](CC(C)C)NC(=O)[C@H](Cc1c[nH]c2ccccc12)NC(=O)[C@H](CCC(N)=O)NC(=O)[C@@H](NC(=O)[C@H](Cc1ccccc1)NC(=O)[C@H](C)NC(=O)[C@H](CCCCNC(=O)COCCOCCNC(=O)COCCOCCNC(=O)CC[C@H](NC(=O)CCCCCCCCCCCCCCCCCCC(=O)O)C(=O)O)NC(=O)[C@H](CCC(N)=O)NC(=O)[C@H](C)NC(=O)[C@@H](NC(=O)[C@H](CCCCN)NC(=O)[C@H](CC(=O)O)NC(=O)[C@H](CC(C)C)NC(=O)C(C)(C)NC(=O)[C@@H](NC(=O)[C@H](CO)NC(=O)[C@H](Cc1ccc(O)cc1)NC(=O)[C@H](CC(=O)O)NC(=O)[C@H](CO)NC(=O)[C@@H](NC(=O)[C@H](Cc1ccccc1)NC(=O)[C@@H](NC(=O)CNC(=O)[C@H](CCC(=O)O)NC(=O)C(C)(C)NC(=O)[C@@H](N)Cc1ccc(O)cc1)[C@@H](C)O)[C@@H](C)O)[C@@H](C)CC)[C@@H](C)CC)C(C)C)C(=O)N[C@@H](C)C(=O)NCC(=O)NCC(=O)N1CCC[C@H]1C(=O)N[C@@H](CO)C(=O)N[C@@H](CO)C(=O)NCC(=O)N[C@@H](C)C(=O)N1CCC[C@H]1C(=O)N1CCC[C@H]1C(=O)N1CCC[C@H]1C(=O)N[C@@H](CO)C(N)=O |  |  | healthy human | 1.0 mg, single ascending dose |  | injection site reaction | 20% |
| Cc1cncc(CC(=O)N2CC3(CC[C@H](CNC(=O)[C@@]4(O)CCc5ccccc5C4)O3)C2)c1 | rep main protease | enzyme activity, inhibitor |  | 5 µM, run 2 |  | inhibition | 13% |
| Cn1cnc(Cn2c(=O)[nH]/c(=N\c3cc4cn(C)nc4cc3Cl)n(Cc3cc(F)c(F)cc3F)c2=O)n1 | Cytochrome P450 2D6 (CYP2D6, Homo sapiens, UniProt P10635) | inhibitor | human liver microsomes | 0 min preincubation, together with: dextromethorphan 10 µM |  | IC50 | > 100 µM |
| LEMELTPVV |  | AIM | peptide, CD8+ T cells from PBMC, human donors | HLA-B*40:01 restricted, unit not given | reference: positive over tested donors | frequency of responding donors | 50 |
| O=C(NC[C@@H]1Cc2ccccc2CN1C(=O)c1noc2c1CCCC2)c1cn[nH]c(=O)c1 | rep main protease | enzyme activity, inhibitor |  | 5 µM, run 2 |  | inhibition | 17.5% |
